Assay results of several laboratories.
A part holds a random share of what one study measured.

Block 1 — technique: protein binding microarray; form: double-stranded DNA, one strand shown; sample: in vitro; tested at: not given; reference: not given; direction: higher = stronger binding
Target: Histone acetyltransferase KAT6A, winged helix 2, GST fusion (KAT6A, Homo sapiens, UniProt Q92794, residues 85-181)
Setting: 8-mer, flanks averaged, mean of 2 arrays, mostly near background
Residues (chain): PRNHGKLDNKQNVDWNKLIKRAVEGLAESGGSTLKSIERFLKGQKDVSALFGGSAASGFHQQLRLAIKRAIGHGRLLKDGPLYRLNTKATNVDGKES
Strand | E-score
GCTTACCC | 0.0676
GGTCGTCA | -0.0726
GATTAGGA | -0.105
AGGGTCAA | 0.102

Block 2 — technique: RNA Bind-n-Seq; form: RNA; sample: in vitro; tested at: 365 nM; reference: no-protein control; direction: higher = stronger binding
Target: RNA binding protein fox-1 homolog 2, RRM domain, GST-SBP tag (RBFOX2, Homo sapiens, UniProt O43251-10, residues 100-194)
Setting: natural RNA segment, single round, ends assumed
Target sequence (chain): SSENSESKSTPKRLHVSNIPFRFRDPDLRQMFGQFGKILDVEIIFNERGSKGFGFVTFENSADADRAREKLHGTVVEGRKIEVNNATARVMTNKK
Strand | RBNS enrichment (R)
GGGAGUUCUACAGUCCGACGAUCCUUUUUAAAUGCAGUAAGGUGGCCUGUUUAUCACUGGCUCUGUGAUACAUGACAUUCUUUGGGAAUUUGGUGGCCACUGCUUCAGUCACCUCUGUUUUUCUGAAGGCUGUUGGAAUUCUCGGGUGCCAA | 0.489
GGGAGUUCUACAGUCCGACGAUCUCCUUUUAGCAAUGCAACAUAUUAACAAAAUUGGGUGCAUUCAGGGUGGUAUGGCCAUAGACCAGAGCAACACAUUGAAAUGUAUACAGAUGUACUAGCUAAAGUCUCUUUGGAAUUCUCGGGUGCCAA | 0.379
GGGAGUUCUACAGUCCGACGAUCCAAAAUGACCCAACGAUGUCCACACACCACCAAAACCCAGCCAAUGGGCCACCUCUUCCUCCAAGCCCAGAUGCAGAGAUGGUCAUGGGCAGCUGGAGGGUAGGCUCAGAUGGAAUUCUCGGGUGCCAA | 0.266
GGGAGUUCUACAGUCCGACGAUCGUAGACUAAAAGCCUAGAAGUUCUGCCCACAUCCUUAUGACGCAGCCAAUCUGGAGCUUCAUGUUUCCUUCUAAAAGUAGUAACCGGGUAGAAGUGGGUGACCCAUUGAGUGGAAUUCUCGGGUGCCAA | 0.361
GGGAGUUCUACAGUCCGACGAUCUCUGAAGAGGAGGAGCAGGAGGAGCCUGCCCACUGGGCAUCGUGCCAUCCCCAUCAGGACCUCAGACCUGGGGUACCUGAACUCUGUCCCUCUGCUGCCGCCUCUGUCUGUGGAAUUCUCGGGUGCCAA | 0.32
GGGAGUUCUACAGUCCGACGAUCAGCCUUUUGCAUGCGGGUAUUAUAUAAUAAUGAAUGGGUGGCUCCUAGUAGCAUGCAACCCAUGACUGUUUACUUCCCUAAAAGGGUUAGGUCUGUGUCCUGCACAGUGUUGGAAUUCUCGGGUGCCAA | 41.8

Block 3 — technique: competition protein-binding microarray; form: double-stranded DNA, one strand shown; sample: in vitro; tested at: 2 µM; together with: Cbf1 competitor, 0.05 µM; direction: higher = stronger binding
Target: Phosphate system positive regulatory protein PHO4, full length, GST-tagged (PHO4, Saccharomyces cerevisiae, UniProt P07270, residues 1-312)
Setting: whole 60-bp probe, lowest competitor level
Target sequence (chain): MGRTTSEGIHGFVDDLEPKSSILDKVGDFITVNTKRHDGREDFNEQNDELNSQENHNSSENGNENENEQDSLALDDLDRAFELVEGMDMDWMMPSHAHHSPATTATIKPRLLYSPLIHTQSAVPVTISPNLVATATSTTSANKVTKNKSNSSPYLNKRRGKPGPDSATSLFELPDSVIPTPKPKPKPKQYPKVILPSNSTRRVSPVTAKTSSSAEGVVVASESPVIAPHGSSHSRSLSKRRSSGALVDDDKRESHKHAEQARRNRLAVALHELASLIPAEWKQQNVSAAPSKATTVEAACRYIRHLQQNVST
Strand | fluorescence intensity [a.u.]
GATTTGTTGTGTAATAGCGTGATGGGCACTTGAATGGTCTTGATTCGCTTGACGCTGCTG | 5880
CCTCCTCCAGTTGAACACATGCAAGGTCGCCCACCAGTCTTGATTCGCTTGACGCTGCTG | 9560
CGGGGTTAAGTTTGTCACGGCACTTGCTTGCAGCAGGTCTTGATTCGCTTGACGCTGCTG | 3950
GCCCCAGGTTAGGACCACGTGGGTAAGAAGATTTCCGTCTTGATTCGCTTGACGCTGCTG | 17000
ATATTATTGATTTTGCACGTGACGAAATGAAAAACAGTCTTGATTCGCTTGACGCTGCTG | 16500
GTGTCAAACAATGTTTACGTTATTCTTTGGTGGGAAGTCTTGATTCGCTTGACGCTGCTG | 5200

Other studies, line by line
Molecule | target | assay | test system | conditions | how to read | quantity | value
PhoQ, residues 284 288 289 292 302 303 NLCILV | PhoP, residues 12 14 15 18 19 AGCRL (Escherichia coli, UniProt P23836) | Sort-seq, measured: YFP reporter | E. coli | PhoQ-PhoP variant library, together with: 10 µM Mg2+ | reference: high Mg2+ state, higher = stronger signaling | fold induction | 4.14

For quick reference, copied from above (block 1):
Strand | E-score
AGGGTCAA | 0.102
GCTTACCC | 0.0676
